Experimental data from different studies.
Lines come from different studies, so protocols differ.
CNR2: Cannabinoid receptor 2 (CNR2, Homo sapiens, UniProt P34972)
UniProt P34972, sequence (whole entry, unmodified, looked up): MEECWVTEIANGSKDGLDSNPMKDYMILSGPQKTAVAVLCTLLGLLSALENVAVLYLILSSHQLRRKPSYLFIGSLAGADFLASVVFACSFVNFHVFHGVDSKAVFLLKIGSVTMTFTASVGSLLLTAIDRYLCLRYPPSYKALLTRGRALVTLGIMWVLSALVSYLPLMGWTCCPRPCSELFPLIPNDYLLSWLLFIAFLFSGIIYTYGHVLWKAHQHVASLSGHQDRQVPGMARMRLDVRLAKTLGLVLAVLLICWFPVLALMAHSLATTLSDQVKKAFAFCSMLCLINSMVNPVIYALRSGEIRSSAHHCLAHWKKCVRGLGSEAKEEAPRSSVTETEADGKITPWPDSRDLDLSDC

CCCCCn1cc(C(=O)c2cccc3c2CC(C)(C)C3)c2ccccc21
EC50 (Cannabinoid receptor 2 (CNR2, Homo sapiens, UniProt P34972, I110L); G protein activation, agonist, BRET): 4570 nM

CCOC(=O)[C@](CC)(CCCSCCOCCOCCNc1ccc([N+](=O)[O-])c2nonc12)NC(=O)c1ccc(C2CC2)c(Cc2ccc(F)cc2)n1
Ki (CNR2; ligand displacement, radioligand; cell membranes): 9.1 nM

CCCCCn1cc(C(=O)c2cccc3ccccc23)c2cc(O)ccc21
Ki (CNR2; ligand displacement, radioligand; cell membranes): 115 nM

CCCCCn1cc(C(=O)c2cccc3ccccc23)c2ccccc21
EC50 (Cannabinoid receptor 2 (CNR2, Homo sapiens, UniProt P34972, V261L); G protein activation, agonist, BRET): 0.589 nM

CCOC(=O)[C@](CC)(CCCSCCOCCOCCNC(=O)c1ccc(-c2c3ccc(=N)c(S(=O)(=O)O)c-3oc3c(S(=O)(=O)O)c(N)ccc23)c(C(=O)O)c1)NC(=O)c1ccc(C2CC2)c(Cc2ccc(F)cc2)n1
EC50 (CNR2; cAMP, agonist): 1.3 nM

CC1=C[C@H]2c3c(O)cc(CCc4ccccc4)cc3OC(C)(C)[C@H]2CC1
EC50 (CNR2; GTPγS binding, agonist, radiometric; cell membranes): 167 nM

COC(=O)c1ccc(Cn2cc(C=C3C(=NO)C4CCN3CC4)c3ccccc32)cc1
Ki (CNR2; ligand displacement, radioligand; cell membranes): 271 nM

CCOC(=O)C(CC)(CC)NC(=O)c1ccc(N2CC(OC)C2)c(OC[C@H]2C[C@@H]2CO)n1
IC50 (CNR2; inverse agonist, HTRF cAMP; CHO cells stably expressing receptor): 4.4 nM

CCCCCn1cc(C(=O)c2ccc3ccccc3c2)c2ccccc21
EC50 (CNR2; G protein activation, agonist, BRET): 44.7 nM

COC1CC(=O)N(C)C=CCCCC(=O)N(C)C(C(C)C)C(=O)N(C)C(CC(C)C)C(=O)OC(C(C)C)CC(C)C1 (stereo not shown)
IC50 (CNR2; β-arrestin recruitment, antagonist): 35000 nM

Some of these lines once more:
CCCCCn1cc(C(=O)c2cccc3c2CC(C)(C)C3)c2ccccc21
EC50 (Cannabinoid receptor 2 (CNR2, Homo sapiens, UniProt P34972, I110L); G protein activation, agonist, BRET): 4570 nM
